Measurements of several laboratories.
Each numbered part is a random draw from the data of one study; scales do not carry over between parts. Substitutions count along the parent as printed.

Series 1
Target: CCNE2, cyclin fold, Cln2 fusion (human)
Technique: yeast growth competition, sequencing
Medium: yeast
Notes: weak parent motif
Baseline: not given
Reading: higher = stronger binding
Endpoint: normalised enrichment score
Parent: MICAL3 docking peptide (human); LQLRRQLSFSEDS; partner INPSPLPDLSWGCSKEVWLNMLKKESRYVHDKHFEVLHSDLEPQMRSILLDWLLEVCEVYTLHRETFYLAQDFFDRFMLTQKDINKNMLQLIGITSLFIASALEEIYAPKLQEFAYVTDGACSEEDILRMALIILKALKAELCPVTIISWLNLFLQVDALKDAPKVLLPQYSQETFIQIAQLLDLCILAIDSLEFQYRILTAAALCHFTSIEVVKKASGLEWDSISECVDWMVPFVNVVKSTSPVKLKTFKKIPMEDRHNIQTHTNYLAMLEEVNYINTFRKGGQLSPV
LQLRRQLSFYEDS [S10Y]: 0.596
LQLRRQPSFSEDS [L7P]: -0.0293
LILRRQLSFSEDS [Q2I]: -0.00944
LQLRRQLSFSKDS [E11K]: 0.867
LQLFRQLSFSEDS [R4F]: 0.0789
LQLRRQLSFSCDS [E11C]: 0.622
LQLRRQLVFSEDS [S8V]: 0.444
LQLRRQLSFSFDS [E11F]: 0.316
LQLRRQVSFSEDS [L7V]: 0.38
LQLRRQLSFSEQS [D12Q]: 0.562
LQLRRQLSFFEDS [S10F]: 0.537
LQTRRQLSFSEDS [L3T]: 1.9
LQLARQLSFSEDS [R4A]: 0.391
LQLRRVLSFSEDS [Q6V]: 0.689
LQLCRQLSFSEDS [R4C]: -0.0149
LQLRRQLKFSEDS [S8K]: 0.423
LQLRRQASFSEDS [L7A]: 0.157

Series 2
Target: Ras GTPase-activating protein-binding protein 1, full length (G3BP1, Homo sapiens, UniProt Q13283)
UniProt Q13283, sequence (whole entry, looked up): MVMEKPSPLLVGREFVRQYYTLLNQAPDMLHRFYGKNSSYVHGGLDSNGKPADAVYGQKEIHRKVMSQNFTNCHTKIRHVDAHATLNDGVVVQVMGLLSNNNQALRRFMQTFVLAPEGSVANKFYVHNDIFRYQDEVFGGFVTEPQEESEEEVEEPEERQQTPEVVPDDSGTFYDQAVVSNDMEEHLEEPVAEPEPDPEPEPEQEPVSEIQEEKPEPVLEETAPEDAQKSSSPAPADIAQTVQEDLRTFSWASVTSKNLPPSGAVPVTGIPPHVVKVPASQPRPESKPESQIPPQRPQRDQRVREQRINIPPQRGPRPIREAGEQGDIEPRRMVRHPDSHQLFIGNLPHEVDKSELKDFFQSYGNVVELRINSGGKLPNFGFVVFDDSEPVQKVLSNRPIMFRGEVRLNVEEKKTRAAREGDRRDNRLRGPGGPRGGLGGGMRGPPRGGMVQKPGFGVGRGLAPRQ
Technique: RNA Bind-n-Seq
Molecule type: RNA
Medium: in vitro
Tested at: 200 nM
Notes: whole 134-nt RNA, ends assumed
With: 150 mM LiCl
Baseline: input library
Reading: higher = stronger binding
Endpoint: log2 enrichment
Library: 7-deaza-guanosine replaces G
Shared flanks, not repeated: GGGAGUUCUACAGUCCGACGAUC … UGGAAUUCUCGGGUGUCAAGG
UAUGAGGAUGAGUUGGUGCCCCUUUUUGAGAAGGCCGGACCCAUUUGGGAUCUACGUCUUAUGAUGGAUCCACUGUCCGGUCAGAAUAGA: 0.989
AGUCCUGUGCUACACAUCGUAUGUACCGAAUCGGGAAAAAAAGGGAAAGGGUUUGGGAAAGUAUUAUGUUACGCCGUUCGGAUCUGCACU: -2.4
GUCCUGUGCUACACAUCGUAUGUACCGAAUCGGUUUUUUGGUUUUUUGGGUUUUUUGGAAAGUAUUAUGUUACGCCGUUCGGAUCUGCAC: -0.777
UGGGCAAUGUGUCGGCUGCAUGCACGAGCCAGGAACUGCGCAGCCUCUUCGAGCGCCGCGGACGCGUCAUCGAGUGUGACGUGGUGAAAG: -0.179
CCUCAAGUCCUGUGCUACACAUCGUAUGUACCGAAUCGGGGAGGGAGGAGGGGAAAGUAUUAUGUUACGCCGUUCGGAUCUGCACUUCCA: 0.0591
UGGCCCUGGUGGCAUGCGGGGAGGGAGAGGUGGCCUCAUGGAUCGUGGUGGUCCCGGUGGAAUGUUCAGAGGUGGCCGUGGUGGAGACAG: 0.454
UCCUCAAGUCCUGUGCUACACAUCGUAUGUACCGAAUCGGUGGAAAGGUGGAAAGUAUUAUGUUACGCCGUUCGGAUCUGCACUUCCAGC: 0.272
UGGCCCUGGUGGCAUGCGGGGAGGAAGAGGUGGCCUCAUGGAUCGUGGUGGUCCCGGUGGAAUGUUCCGAGGUGGCCGUGGUGGAGACAG: 0.0215

Series 3
Target: RNA binding protein fox-1 homolog 2, RRM domain, GST-SBP tag (RBFOX2, Homo sapiens, UniProt O43251-10, residues 100-194)
Technique: RNA Bind-n-Seq
Molecule type: RNA
Medium: in vitro
Tested at: 365 nM
Notes: natural RNA segment, single round, ends assumed
Baseline: no-protein control
Reading: higher = stronger binding
Endpoint: RBNS enrichment (R)
Shared flanks, not repeated: GGGAGUUCUACAGUCCGACGAUC … UGGAAUUCUCGGGUGCCAA
Residues (chain): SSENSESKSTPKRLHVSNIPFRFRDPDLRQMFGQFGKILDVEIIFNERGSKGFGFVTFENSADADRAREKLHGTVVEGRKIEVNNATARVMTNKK
AGAGAUGGCUUGAGGGUCAGGAGUACAAAGCCUUCCUGUAGAUGGCCAGAGUUUGGAUUCUAGUGCUCGUGCUGAGUGGCACACACUCAAACAUUACUCUCUCUUGGGAG: 0.387
UCUGGAUUCCUUAUUUGAUUUAUUUAACCUAAUUAUAUUCUAAUAUUGCAAAUAUUACCAUAAGUGGGUAAAAGUAAAAUUCCUCUUCUGAAAAUGUGUCCUGUGCUUUU: 0.659
GACCACACUCCAACACGGAGCUGGGGGCAUCGCUCCACAAAGACCUGCUGUGGGAAGAGGGUACUGAAUGGGCAAGAGCCUACAAGGUUCAGUCUAUGAUGGAGAGGGGA: 0.376
AAGUAGCGUGGGCUAGCCAAUCUGCCGUUCAUGGUGUAUUGUAAACUCCGAAUUCCAUAUGUAAUAGGAUGCAAGUCUAAGCGUUUCAUGUGGACAUAAAUGUAUCUAAA: 0.453
AAAUUCUCACAGGCCAGGCUCUGUGCGGGCUCUAGUGCCAGGUGUAGCUGGGUACAUUCCCCGUCAGUGUGACUUCCUUUCAUUUUGACAACUUCCUUCCUUUAAGAUGC: 0.474
CUCUUGAGGCUGGCAGCCCUCCUGCAAUGAGUUGCUCUCAGUUCCUUCUGUUUGGAUUUUGCUCAACAUCUCCAGUUUCUCUGCUCUGAAAAAUGGGGAAAACUGCUAAA: 0.355
GGAGUCAAGUAAUGGAGGUCCCAGCCCUGGGGGUUUAAGCUCUGCCCCUUCCCCAUGAACCCUGCCCUGCUCUGCCCAGGCAAGGAACAGAAGUGAGGAUGAGACCCAGC: 0.277
AGAAAAUAACUACACAUGGAAAUGAAACUAGCUGAAGCCUUUUCUUGUUUUAGCAACUGAAAAUUGUACUUGGUCACUUUUGUGCUUGAGGAGGCCCAUUUUCUGCCUGG: 1.01

Series 4
Target: Sal-like protein 4, full length isoform A (SALL4, Homo sapiens, UniProt Q9UJQ4, residues 1-1053)
UniProt Q9UJQ4, sequence (whole entry, looked up): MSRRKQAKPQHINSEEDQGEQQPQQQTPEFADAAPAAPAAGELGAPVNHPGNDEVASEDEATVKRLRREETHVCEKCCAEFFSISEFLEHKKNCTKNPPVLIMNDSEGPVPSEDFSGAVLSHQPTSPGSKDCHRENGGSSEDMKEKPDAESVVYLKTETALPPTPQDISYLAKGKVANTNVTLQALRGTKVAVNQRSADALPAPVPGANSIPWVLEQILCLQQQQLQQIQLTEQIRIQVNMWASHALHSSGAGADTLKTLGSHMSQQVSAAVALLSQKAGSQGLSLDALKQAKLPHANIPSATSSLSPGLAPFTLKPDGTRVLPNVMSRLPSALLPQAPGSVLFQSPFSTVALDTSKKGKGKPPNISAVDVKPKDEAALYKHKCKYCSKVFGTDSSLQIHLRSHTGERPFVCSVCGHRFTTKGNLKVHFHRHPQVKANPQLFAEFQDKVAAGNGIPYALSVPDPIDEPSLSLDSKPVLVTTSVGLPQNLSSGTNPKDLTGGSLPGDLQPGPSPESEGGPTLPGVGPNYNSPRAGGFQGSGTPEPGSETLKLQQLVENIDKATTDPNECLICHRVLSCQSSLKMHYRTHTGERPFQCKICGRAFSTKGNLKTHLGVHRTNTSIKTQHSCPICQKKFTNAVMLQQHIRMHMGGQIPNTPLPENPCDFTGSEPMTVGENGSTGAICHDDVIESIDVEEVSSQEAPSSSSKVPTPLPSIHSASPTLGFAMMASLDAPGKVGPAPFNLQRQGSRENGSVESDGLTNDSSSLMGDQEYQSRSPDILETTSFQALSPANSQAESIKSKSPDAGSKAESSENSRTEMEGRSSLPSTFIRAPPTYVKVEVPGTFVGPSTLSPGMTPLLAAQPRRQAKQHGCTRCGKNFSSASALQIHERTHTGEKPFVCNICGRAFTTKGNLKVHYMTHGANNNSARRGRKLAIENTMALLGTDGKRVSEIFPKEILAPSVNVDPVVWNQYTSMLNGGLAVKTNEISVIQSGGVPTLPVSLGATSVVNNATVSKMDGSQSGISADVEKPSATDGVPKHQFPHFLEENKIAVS
Technique: universal PBM
Molecule type: double-stranded DNA, one strand shown
Medium: in vitro
Tested at: 600 nM
Notes: 8-mer, flanks averaged, mean of replicates
Reading: higher = stronger binding
Endpoint: E-score
GTGCTACA: 0.0403
ATAAAGTA: 0.37
GGAACTCA: -0.0401
CTCCTTGC: -0.117
AATTGTAA: 0.327
CAATGTTC: -0.0321
AGTTAGTC: -0.0388
AAGGAAGC: -0.182
TACGTGGA: 0.0024
GGTTTCGA: -0.25
CCTTAACA: 0.206
CTTTAGAA: 0.208
CCCAGGAC: -0.388
ACGGTGAC: -0.15
CAATTTTA: 0.346
AAGATGGG: -0.0467
ACCTTGGA: -0.185
GTCCCAAA: -0.0694
CACCCACC: -0.237
AAAGAGAA: 0.11
AGACGATG: -0.0067
GTTGTCGA: -0.0783
GTGGATCA: -0.0549
CCGTATCG: -0.262
GAGGCATA: 0.0763

For quick reference, copied from above (series 4):
CCTTAACA: 0.206
AAAGAGAA: 0.11
ACCTTGGA: -0.185
CTCCTTGC: -0.117
AAGGAAGC: -0.182
CTTTAGAA: 0.208
TACGTGGA: 0.0024
